Published values of several laboratories.
Every numbered part comes from another study and shows a few of its results, in no order.
Sequence of UniProt P54760 (whole entry, looked up): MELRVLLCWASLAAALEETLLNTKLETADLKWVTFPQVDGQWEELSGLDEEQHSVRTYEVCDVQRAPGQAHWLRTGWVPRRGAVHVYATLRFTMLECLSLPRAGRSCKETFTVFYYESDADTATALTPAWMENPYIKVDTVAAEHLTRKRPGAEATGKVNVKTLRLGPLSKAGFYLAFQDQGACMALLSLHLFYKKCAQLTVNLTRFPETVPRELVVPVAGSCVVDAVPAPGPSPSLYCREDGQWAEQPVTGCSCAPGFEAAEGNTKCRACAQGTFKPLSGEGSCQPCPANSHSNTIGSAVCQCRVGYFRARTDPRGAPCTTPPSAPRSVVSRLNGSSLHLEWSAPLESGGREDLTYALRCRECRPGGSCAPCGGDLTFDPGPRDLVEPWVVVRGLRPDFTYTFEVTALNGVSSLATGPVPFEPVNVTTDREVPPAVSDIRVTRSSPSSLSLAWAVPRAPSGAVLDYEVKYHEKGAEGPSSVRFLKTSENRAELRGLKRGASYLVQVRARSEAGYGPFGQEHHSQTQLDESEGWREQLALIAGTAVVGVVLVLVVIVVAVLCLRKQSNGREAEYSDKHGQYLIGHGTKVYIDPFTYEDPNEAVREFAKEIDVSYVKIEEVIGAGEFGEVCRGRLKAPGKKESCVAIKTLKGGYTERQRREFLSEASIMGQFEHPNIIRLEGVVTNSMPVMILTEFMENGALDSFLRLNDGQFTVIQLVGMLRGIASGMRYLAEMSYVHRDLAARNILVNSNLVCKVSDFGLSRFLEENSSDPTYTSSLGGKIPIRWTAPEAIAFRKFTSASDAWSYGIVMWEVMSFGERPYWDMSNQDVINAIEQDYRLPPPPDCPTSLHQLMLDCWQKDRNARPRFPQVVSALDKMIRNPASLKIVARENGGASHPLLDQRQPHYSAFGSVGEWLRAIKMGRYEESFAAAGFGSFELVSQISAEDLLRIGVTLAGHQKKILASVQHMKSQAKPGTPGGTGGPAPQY
Sequence of UniProt Q8NE63 (whole entry, looked up): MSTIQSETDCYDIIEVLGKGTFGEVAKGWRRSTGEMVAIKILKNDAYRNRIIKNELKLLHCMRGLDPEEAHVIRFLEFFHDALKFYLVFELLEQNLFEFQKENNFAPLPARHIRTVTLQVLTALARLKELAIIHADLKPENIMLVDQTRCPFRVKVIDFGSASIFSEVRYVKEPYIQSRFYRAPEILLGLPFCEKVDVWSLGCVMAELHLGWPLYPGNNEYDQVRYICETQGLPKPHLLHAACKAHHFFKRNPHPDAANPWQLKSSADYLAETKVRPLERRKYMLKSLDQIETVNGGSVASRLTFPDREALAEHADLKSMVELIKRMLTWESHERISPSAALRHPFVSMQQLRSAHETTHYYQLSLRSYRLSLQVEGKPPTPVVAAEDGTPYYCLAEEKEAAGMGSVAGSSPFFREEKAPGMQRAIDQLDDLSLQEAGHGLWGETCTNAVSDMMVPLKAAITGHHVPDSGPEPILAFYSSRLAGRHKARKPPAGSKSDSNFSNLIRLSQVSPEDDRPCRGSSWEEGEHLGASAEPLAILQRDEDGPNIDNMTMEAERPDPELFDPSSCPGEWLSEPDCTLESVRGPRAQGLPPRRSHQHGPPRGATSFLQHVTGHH
Sequence of UniProt Q9UEE5 (whole entry, looked up): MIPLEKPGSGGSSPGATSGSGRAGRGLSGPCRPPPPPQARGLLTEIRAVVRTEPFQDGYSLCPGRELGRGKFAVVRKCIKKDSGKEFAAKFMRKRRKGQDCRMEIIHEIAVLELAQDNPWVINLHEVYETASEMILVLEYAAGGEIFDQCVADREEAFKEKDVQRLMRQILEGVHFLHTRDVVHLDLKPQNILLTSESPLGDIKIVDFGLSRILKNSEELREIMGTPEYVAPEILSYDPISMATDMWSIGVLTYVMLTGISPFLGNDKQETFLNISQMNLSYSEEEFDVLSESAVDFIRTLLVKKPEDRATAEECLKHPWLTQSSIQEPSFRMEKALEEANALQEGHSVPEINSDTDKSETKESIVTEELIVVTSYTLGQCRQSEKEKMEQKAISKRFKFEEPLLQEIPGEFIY
Sequence of UniProt Q9BYP7 (whole entry, looked up): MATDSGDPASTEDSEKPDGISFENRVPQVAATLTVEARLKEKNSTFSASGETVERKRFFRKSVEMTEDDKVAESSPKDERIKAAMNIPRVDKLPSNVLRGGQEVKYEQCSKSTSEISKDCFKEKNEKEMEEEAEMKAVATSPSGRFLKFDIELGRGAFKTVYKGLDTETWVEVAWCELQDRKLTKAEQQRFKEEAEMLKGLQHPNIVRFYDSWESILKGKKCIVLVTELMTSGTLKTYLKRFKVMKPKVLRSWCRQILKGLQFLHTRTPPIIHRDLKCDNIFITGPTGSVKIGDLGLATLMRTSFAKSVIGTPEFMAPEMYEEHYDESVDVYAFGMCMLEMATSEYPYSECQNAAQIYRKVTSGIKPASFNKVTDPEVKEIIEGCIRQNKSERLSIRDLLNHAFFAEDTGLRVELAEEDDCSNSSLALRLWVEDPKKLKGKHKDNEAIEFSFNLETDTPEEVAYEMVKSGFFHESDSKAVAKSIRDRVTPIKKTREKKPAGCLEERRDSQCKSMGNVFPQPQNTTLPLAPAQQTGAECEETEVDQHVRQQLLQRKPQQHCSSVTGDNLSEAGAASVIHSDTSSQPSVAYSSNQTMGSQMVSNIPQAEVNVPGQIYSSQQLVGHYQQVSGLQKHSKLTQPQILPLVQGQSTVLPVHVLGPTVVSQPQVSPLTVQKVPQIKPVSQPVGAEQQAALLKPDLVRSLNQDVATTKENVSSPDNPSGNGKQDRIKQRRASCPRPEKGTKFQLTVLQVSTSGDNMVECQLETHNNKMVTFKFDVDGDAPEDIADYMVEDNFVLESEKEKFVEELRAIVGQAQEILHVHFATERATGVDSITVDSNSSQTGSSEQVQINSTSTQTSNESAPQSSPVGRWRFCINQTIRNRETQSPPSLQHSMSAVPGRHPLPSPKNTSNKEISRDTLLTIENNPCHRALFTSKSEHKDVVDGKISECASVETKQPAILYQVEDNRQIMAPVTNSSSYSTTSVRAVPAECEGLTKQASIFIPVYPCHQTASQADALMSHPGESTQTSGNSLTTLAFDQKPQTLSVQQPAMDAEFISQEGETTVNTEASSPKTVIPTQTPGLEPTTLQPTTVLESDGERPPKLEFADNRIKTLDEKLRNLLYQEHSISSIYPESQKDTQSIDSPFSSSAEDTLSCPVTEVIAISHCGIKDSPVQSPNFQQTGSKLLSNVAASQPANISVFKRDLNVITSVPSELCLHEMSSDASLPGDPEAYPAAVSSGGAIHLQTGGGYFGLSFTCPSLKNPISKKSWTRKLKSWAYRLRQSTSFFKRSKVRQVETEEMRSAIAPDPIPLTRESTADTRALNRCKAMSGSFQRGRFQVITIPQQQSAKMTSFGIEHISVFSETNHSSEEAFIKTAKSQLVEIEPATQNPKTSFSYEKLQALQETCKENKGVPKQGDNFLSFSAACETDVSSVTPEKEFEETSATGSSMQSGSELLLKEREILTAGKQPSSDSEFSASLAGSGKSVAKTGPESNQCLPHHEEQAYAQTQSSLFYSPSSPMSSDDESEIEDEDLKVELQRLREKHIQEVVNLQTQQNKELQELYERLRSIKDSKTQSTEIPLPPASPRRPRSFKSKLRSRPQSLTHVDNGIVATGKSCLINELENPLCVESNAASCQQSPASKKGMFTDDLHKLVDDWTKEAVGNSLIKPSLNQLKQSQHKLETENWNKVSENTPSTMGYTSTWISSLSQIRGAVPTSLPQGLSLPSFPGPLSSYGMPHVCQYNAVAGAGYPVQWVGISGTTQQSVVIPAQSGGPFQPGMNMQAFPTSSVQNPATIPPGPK

Study 1 — effect on: enzyme activity; action: inhibitor; concentration: 0.5 µM; baseline: control
Compound: COC[C@H]1OC(=O)c2coc3c2[C@@]1(C)C1=C(C3=O)[C@@H]2CCC(=O)[C@@]2(C)C[C@H]1OC(C)=O
target | remaining activity [%]
Homeodomain-interacting protein kinase 4 (HIPK4, Homo sapiens, UniProt Q8NE63) | 99.3
Serine/threonine-protein kinase 17A (STK17A, Homo sapiens, UniProt Q9UEE5) | 96.2
Ephrin type-B receptor 4 (EPHB4, Homo sapiens, UniProt P54760) | 96.8
Serine/threonine-protein kinase WNK3 (WNK3, Homo sapiens, UniProt Q9BYP7) | 99.5

Study 2 — technique: protein-binding microarray; form: hairpin DNA; sample: in vitro; concentration: not given; baseline: not given; reading: higher = stronger binding
Target: Cyclic AMP-responsive element-binding protein 1, full length (CREB1, Homo sapiens, UniProt P16220, residues 1-327)
Sequence of UniProt P16220 (whole entry, looked up): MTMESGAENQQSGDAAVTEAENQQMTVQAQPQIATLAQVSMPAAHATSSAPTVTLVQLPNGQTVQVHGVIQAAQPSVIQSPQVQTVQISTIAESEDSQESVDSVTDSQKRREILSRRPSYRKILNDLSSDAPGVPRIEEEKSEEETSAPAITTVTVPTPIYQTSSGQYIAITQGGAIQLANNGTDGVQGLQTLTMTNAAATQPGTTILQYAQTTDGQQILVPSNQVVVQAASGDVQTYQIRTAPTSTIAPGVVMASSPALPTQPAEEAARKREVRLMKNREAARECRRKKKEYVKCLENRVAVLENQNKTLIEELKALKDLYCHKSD
Notes: whole hairpin DNA, median over replicate spots
Sequence | median fluorescence [a.u.]
GAGGCCGCGGACGTCGTGCCTCCTGGCACGACGTCCGCGGCCTCACACTC (5mC at 8 15 29 35 36) | 3340
GAGGCCCGATGACGTCAGCCTCCTGGCTGACGTCATCGGGCCTCACACTC (5mC at 7 37) | 26700
GAGGCCGGATGAGGTCAGCCTCCTGGCTGACCTCATCCGGCCTCACACTC | 3180
GAGGCCGGCTGACCGCAGCCTCCTGGCTGCGGTCAGCCGGCCTCACACTC (5mC at 14) | 2630
GAGGCCGACGACGCGGTGCCTCCTGGCACCGCGTCGTCGGCCTCACACTC (5mC at 9 14 29 30 35) | 4610
GAGGCCGTATGACGTCAGCCTCCTGGCTGACGTCATACGGCCTCACACTC | 24100
GAGGCCCGATGACGTCAGCCTCCTGGCTGACGTCATCGGGCCTCACACTC (5mC at 37) | 22700
GAGGCCGCATGACGTCAGCCTCCTGGCTGACGTCATGCGGCCTCACACTC | 19200

Study 3 — technique: RNAcompete; form: RNA; sample: in vitro; concentration: 20 nM; notes: 7-mer, probes averaged, single round; baseline: mean of 7-mers; reading: higher = stronger binding
Target: PABPC1L2, full length, GST fusion (mouse, UniProt A0ABA7IW68)
Construct (chain): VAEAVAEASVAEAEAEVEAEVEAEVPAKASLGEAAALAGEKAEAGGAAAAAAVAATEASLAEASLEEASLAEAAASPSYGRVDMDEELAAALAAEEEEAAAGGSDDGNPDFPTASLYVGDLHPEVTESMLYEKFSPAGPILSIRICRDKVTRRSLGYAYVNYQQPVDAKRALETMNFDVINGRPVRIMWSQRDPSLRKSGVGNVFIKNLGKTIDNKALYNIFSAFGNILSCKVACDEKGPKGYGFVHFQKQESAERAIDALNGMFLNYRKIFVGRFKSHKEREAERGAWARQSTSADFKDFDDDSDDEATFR
Sequence | 7-mer Z-score
UCCGACA | -0.0337
CCGAUCA | -0.166
AGGAUUU | -0.113
GAGAACA | 0.206
GUACGAU | -0.222
UGCACAU | -0.284
GGAUAAC | 0.1
CUAUGAU | -0.208

Study 4 — effect on: peptide-MHC binding; form: peptide; reading: direction not given
Target: HLA class I histocompatibility antigen, A alpha chain, allele A*80:01 (Homo sapiens, UniProt P04439)
Molecule | z-score of log IC50
DIKLIDIAL | 0.38
FTFDLTALK | 0.38
FLQQRKPPL | 0.38
AGGWVLWKV | 0.38
FHERGYVKL | 0.38
AKIALAVYK | 0.38
AQSDFMSWV | 0.38
FTGWRDPGL | 0.38
PIPVGDIYK | 0.38
FQAGWEDPT | 0.38
AALEGLSGF | 0.38
FIVEHINAM | 0.38
ATEDPSSGY | 0.38
FLFDRLTNG | 0.38
DEWECTRDD | 0.38
AHYEEDVNL | 0.38
DGAEGINPY | 0.38
GLYLYRFHV | 0.38

Further values, each from its own experiment
SMILES | cell line | test | setting | scale | quantity | result
C#CCN(C)[C@H](C)Cc1ccccc1 | mouse MPNST tumor cells | high-content immunofluorescence imaging, measured: nuclear SOX9 | 10 µM, 12 h, mean of 2 replicates | baseline: DMSO control, higher = more nuclear SOX9 | nuclear SOX9 intensity | 100 % of DMSO
